Measured values from different studies.
Lines come from different studies, so protocols differ. ± marks the error that the study gave.
MAPK8: Mitogen-activated protein kinase 8 (MAPK8, Homo sapiens, UniProt P45983)
BRDT BD2: Bromodomain testis-specific protein, BD2 (BRDT, Homo sapiens, UniProt Q58F21)

SMILES = COC(=O)[C@@]1(C)C=C(C(=O)OC(C)(C)C)C(=O)CC1; target or system = MAPK8; assay = D-peptide binding, inhibitor, FP peptide displacement; conditions = 31.25 µM; scale = lower is stronger displacement; quantity = fraction bound; value = 0.768
SMILES = C=CC(=O)N1CCCC(n2c(=O)c3ncccc3n(Cc3ccc(Oc4ccccc4)cc3)c2=O)C1 (stereo not drawn); target or system = NudC domain-containing protein 2 (NUDCD2, Homo sapiens, UniProt Q8WVJ2); assay = thermal proteome profiling, refers to: NUDCD2; conditions = 10 µM, destabilized proteins, unit not given; scale = baseline: vehicle; quantity = melting temperature shift; value = -7.12
SMILES = CC(C)C[C@@H]1NC(=O)[C@H](Cc2ccccc2)NC(=O)CSC[C@@H](C(=O)NCC(N)=O)NC(=O)[C@H](Cc2ccc(O)cc2)NC(=O)[C@H](C(C)C)NC(=O)[C@H](Cc2ccccc2)NC(=O)[C@H](Cc2ccc(O)cc2)NC(=O)[C@H](Cc2ccccc2)NC(=O)[C@H](CC(=O)O)NC(=O)[C@H](CC(N)=O)NC(=O)[C@H](CC(N)=O)NC(=O)[C@H](Cc2ccc(O)cc2)NC(=O)[C@H](C(C)C)NC(=O)[C@H](Cc2ccccc2)NC1=O; target or system = Stimulator of interferon genes protein (STING1, Homo sapiens, UniProt Q86WV6, H232R); assay = thermal stability, DSF; conditions = 50 µM; quantity = ΔTm; value = 0.56 °C
SMILES = CNC(=O)C[C@H](Cc1ccc(C#N)cc1)NC(=O)c1cc(-c2ccc(CN[C@H](C)c3ccc(C)cc3)o2)ccc1Cl; target or system = Transcription initiation factor TFIID subunit 1-like (TAF1L, Homo sapiens, UniProt Q8IZX4); assay = enzyme activity, inhibitor; conditions = 1 µM; quantity = activity vs control; value = 104%
SMILES = CCCCCC(O)/C=C/C=O (stereo not drawn); target or system = Glutathione reductase, mitochondrial (GSR, Homo sapiens, UniProt P00390); assay = acylphosphate-ATP probe SILAC-ABPP; system = ZAK-transfected HEK293T; conditions = 100 µM, added: acylphosphate-ATP probe; scale = baseline: DMSO over compound-treated; quantity = probe labelling ratio; value = 0.66
SMILES = Cc1cc(=O)oc2cc(NC(=O)CCCCCCC(=O)NO)ccc12; target or system = Histone deacetylase 8 (HDAC8, Homo sapiens, UniProt Q9BY41); assay = ITC; system = Tris-HCl buffer; conditions = 293 K; quantity = TΔS°; value = 2.98 kcal/mol
SMILES = COC1CN([C@H]2CC[C@H]([C@@]3(C)Oc4c(Cl)cc(C(=O)NCc5c(SC)cc(C)[nH]c5=O)c(C)c4O3)CC2)C1; assay = RNA-seq, refers to: ZNRF3 mouse homolog; system = mouse, HT-1376 xenograft, whole blood; conditions = dose not given; scale = baseline: vehicle; quantity = log2 fold change; value = 0.262
SMILES = Cc1ncsc1-c1ccc(C(C)NC(=O)C2CC(O)CN2C(=O)C(NC(=O)CCCCCCCCCCN2CCCC(Nc3ncc(Cl)c(Nc4ccccc4S(=O)(=O)C(C)C)n3)C2)C(C)(C)C)cc1 (stereo not drawn); target or system = 22Rv1; assay = RNA-seq, refers to: TDRD7 mRNA; conditions = concentration not given; scale = baseline: DMSO; quantity = log2 fold change; value = -1.58
SMILES = Nc1ncc(-c2cc(-c3cnn(CC(F)(F)F)c3)ncc2F)nc1C(=O)NC1CNCC(F)C1 (stereo not drawn); target or system = FRK; assay = KINOMEscan; conditions = 1 µM; scale = baseline: DMSO control; quantity = remaining binding; value = 81%
SMILES = COC(=O)[C@@]1(Cc2ccccc2)C=C(C(=O)OC(C)(C)C)C(=O)CC1; target or system = MAPK8; assay = D-peptide binding, inhibitor, FP peptide displacement; conditions = 62.5 µM; scale = lower is stronger displacement; quantity = fraction bound; value = -0.0761
SMILES = C=CC(=O)Nc1cccc(Cn2ncc3cnc(Nc4cnn(CCOC)c4)nc32)c1; target or system = human NIK; assay = KINOMEscan; conditions = 100 nM; scale = baseline: control; quantity = binding; value = 69%
SMILES = COc1ccccc1-c1ccncc1C(=O)Nc1nnc(OCc2ccc(Cl)cc2)s1; target or system = Bifunctional 3'-5' exonuclease/ATP-dependent helicase WRN, residues 500-946 (WRN, Homo sapiens, UniProt Q14191); assay = ATPase activity, ADP-Glo; conditions = 0.95 µM; scale = baseline: 0 µM cpd; quantity = remaining activity; value = 98%
SMILES = CC(=O)N1c2ccc(-c3ccc(CNC(=O)c4cn5cc(-c6cnc(N)nc6)nc(N6CCOCC6)c5n4)cc3)cc2CC[C@@H]1C; target or system = BRDT BD2; assay = binding, competition with immobilised ligand; conditions = 10 µM; quantity = remaining binding; value = 0.7%
SMILES = COC(=O)[C@@]1(C)C=C(C(=O)Nc2cccc(C(=O)Nc3ccc(Nc4nccc(-c5cccnc5)n4)c(C)c3)c2)C(=O)CC1; target or system = Mitogen-activated protein kinase 8, phosphorylated (MAPK8, Homo sapiens, UniProt P45983); assay = enzyme activity after dialysis, inhibitor; conditions = 10 µM, 2 days, unit not given; scale = baseline: no inhibitor; quantity = remaining activity; value = 0.132
SMILES = COc1ccc(C(=O)N2c3ccc(F)cc3[C@@H](Nc3ccccc3)C[C@H]2C)cc1; target or system = Ecdysone receptor (Aedes albopictus, UniProt Q9U3Y4); assay = ligand binding, inhibitor; system = intact cells; conditions = added: [3H]ponasterone A; scale = direction not given; quantity = pIC50 Z-score; value = -0.58
SMILES = CCCCC1(CC)C(=O)N(c2cccc(CN3CCN(Cc4ccc(Br)cc4)CC3)c2)C1=O; target or system = Dipeptidyl peptidase 8 (Homo sapiens, UniProt Q6V1X1); assay = enzyme activity, inhibitor; conditions = 5 µM; quantity = activity vs control; value = 19%
SMILES = Cc1nn(-c2cccc(N)c2)c(=O)c2cnc(Nc3ccc(N4CCNCC4)cc3)nc12; target or system = Tyrosine-protein kinase ABL2 (ABL2, Homo sapiens, UniProt P42684); assay = enzyme activity, inhibitor; quantity = IC50; value = 1.62 µM
SMILES = CC(C)OCCOCc1ccc(OCC(O)CN(N=O)C(C)C)cc1 (stereo not drawn); target or system = Escherichia coli; assay = Ames test; system = WP2 uvrA; conditions = 500 µg/plate, 30 % rat S9; scale = baseline: solvent control; quantity = revertant fold increase; value = 0.8 fold
SMILES = CC(C)=CCc1cc(C(=O)/C=C/c2ccc(O)cc2)c(O)cc1O; assay = phase I metabolism; system = dog liver microsomes; quantity = substrate inhibition constant Ki; value = 66.8 ± 10.7 µM
SMILES = Cn1cc(-c2cc(N3CCCCS3(=O)=O)ccc2N[C@H]2CC[C@H](C)CC2)c2cc[nH]c2c1=O (stereo in doubt); target or system = BRDT BD2; assay = binding, competition with immobilised ligand; conditions = 1 µM; quantity = remaining binding; value = 0.6%
SMILES = Cc1cn(CC(=O)N(CCNC(=O)CN(CCNC(=O)CN(CCNC(=O)CN(CCNC(=O)CN(CCNC(=O)CN(CCNC(=O)CN(CCNC(=O)CN(CCN)C(=O)Cn2cnc3c(=O)[nH]c(N)nc32)C(=O)Cn2cnc3c(N)ncnc32)C(=O)Cn2cc(C)c(=O)[nH]c2=O)C(=O)Cn2cnc3c(=O)[nH]c(N)nc32)C(=O)Cn2cc(C)c(=O)[nH]c2=O)C(=O)Cn2cnc3c(=O)[nH]c(N)nc32)C(=O)Cn2cnc3c(N)ncnc32)CC(=O)NCCN(CC(=O)NCCOCCOCC(N)=O)C(=O)Cn2cnc3c(N)ncnc32)c(=O)[nH]c1=O; target or system = complementary RNA; assay = duplex formation, UV melting curve fit; system = PBS; conditions = 1 µM; quantity = ΔS; value = -163.4 ± 0.1 cal/mol/K

Repeated from above:
SMILES = CC(C)OCCOCc1ccc(OCC(O)CN(N=O)C(C)C)cc1 (stereo not drawn); target or system = Escherichia coli; assay = Ames test; system = WP2 uvrA; conditions = 500 µg/plate, 30 % rat S9; scale = baseline: solvent control; quantity = revertant fold increase; value = 0.8 fold
SMILES = C=CC(=O)N1CCCC(n2c(=O)c3ncccc3n(Cc3ccc(Oc4ccccc4)cc3)c2=O)C1 (stereo not drawn); target or system = NudC domain-containing protein 2 (NUDCD2, Homo sapiens, UniProt Q8WVJ2); assay = thermal proteome profiling, refers to: NUDCD2; conditions = 10 µM, destabilized proteins, unit not given; scale = baseline: vehicle; quantity = melting temperature shift; value = -7.12
SMILES = CCCCC1(CC)C(=O)N(c2cccc(CN3CCN(Cc4ccc(Br)cc4)CC3)c2)C1=O; target or system = Dipeptidyl peptidase 8 (Homo sapiens, UniProt Q6V1X1); assay = enzyme activity, inhibitor; conditions = 5 µM; quantity = activity vs control; value = 19%
